Results from different studies.
Compare with care: the assays were run in different laboratories. “And” joins repeats or separate records; there may be more than shown. Numbers after ± are the reported error. In brackets after ≈: the same amount, converted by molar mass.

Compound	organism	test	test system	conditions	how to read	endpoint	value
OB(O)c1csc2ccccc12	Staphylococcus aureus		USA300 wild type	50 µM	baseline: untreated	growth relative to untreated	63.8% and 46.2% and 53.2% and 80.9% and 71.1%
O=C(O)[C@@H]1[O][Sb](=[O])([O][Sb]2(=[O])[O][C@H]([C@H](O)CO)[C@H](O)[C@H](C(=O)O)[O]2)[O][C@H]([C@H](O)CO)[C@@H]1O.[Na+].[Na+].[Na+] (some centres unmarked)	Leishmania mexicana	parasite growth, propidium iodide flow cytometry	promastigotes	48 h		IC50	346 µM
CCOC(=O)COc1ccc2ccc3oc([N+](=O)[O-])cc3c2c1	Enterobacter cloacae	REMA				MIC90	> 32 µg/mL
Nc1ncnc2c([C@@H]3N[C@H](CO)[C@@H](O)[C@H]3O)c[nH]c12	Measles morbillivirus	viral replication	Vero 76, Chicago	3 µM		inhibition	26.4%
Cc1c2c(nn1C)CSCc1cc(n(C)n1)CSc1cc(c3ccccc3c1)OCCCc1c(C(=O)O)n(C)c3c-2c(Cl)ccc13	Staphylococcus aureus	label-free quantitative proteomics, measured: IlvC protein	SA113	concentration not given	baseline: untreated control	log2 fold change	5.69
CNCC(=O)N[C@@H](CO)C(=O)N[C@H]1[C@H](O)[C@@H](O)[C@H](n2ccc(N)nc2=O)O[C@@H]1C(N)=O	tobacco mosaic virus	inactivation activity	in vivo plant			EC50	77.4 ± 1.3 µg/mL (≈ 175 µM)
Cc1cnc(-c2cc(Cl)ccc2F)cc1-n1c(=O)n(CC(N)=O)c2cnccc21	murine hepatitis virus	viral replication, nanoluciferase reporter	DBT	1 µM, 10 h	baseline: DMSO vehicle	inhibition	28%
Nc1ncnc2c1ncn2[C@@H]1O[C@@H]2COP(=O)(O)O[C@H]3[C@@H](O)[C@H](n4cnc5c(=O)[nH]cnc54)O[C@@H]3COP(=O)(O)O[C@H]2[C@H]1O	West Nile virus	RNA sequencing, measured: elastic fibre associated molecules R-HSA-2129379	HFF-1 cells	concentration not given, downregulated pathway	baseline: WNV-infected untreated cells	fold enrichment	7.44
O=[N+]([O-])c1cc2c(ccc3c4cc([N+](=O)[O-])oc4ccc23)o1	Mycobacterium avium subsp. hominissuis	REMA	ATCC 25291			MIC90	16 µg/mL (≈ 53.7 µM)
CC(=O)O[C@H]1C[C@H](O[C@H]2[C@@H](O)C[C@H](O[C@H]3[C@@H](O)C[C@H](O[C@H]4CC[C@@]5(C)[C@H](CC[C@@H]6[C@@H]5C[C@@H](O)[C@]5(C)[C@@H](C7=CC(=O)OC7)CC[C@]65O)C4)O[C@@H]3C)O[C@@H]2C)O[C@H](C)[C@H]1O[C@@H]1O[C@H](CO)[C@@H](O)[C@H](O)[C@H]1O	human alphaherpesvirus 1		K26 GFP, 3D skin equivalent, submerged		baseline: CC50 over IC50	selectivity index	27.7
OC(Cn1cncn1)(Cn1cncn1)c1ccc(F)cc1F	Candida parapsilosis		CGMCC 2.399	48 h, 30 °C		MIC	4 µM
Cn1cc(C2=C(c3cn(C4CCN(Cc5ccccn5)CC4)c4ccccc34)C(=O)NC2=O)c2ccccc21	Aspergillus fumigatus			20 µM	baseline: untreated	metabolic activity	≥ 80%
Cc1ccc(-c2ccc3c(ccc4sc5c(c43)NC[C@@H](C)NC5=O)n2)cn1	murine hepatitis virus	viral replication, nanoluciferase reporter	DBT	1 µM, 10 h	baseline: DMSO vehicle	inhibition	34%
CC[C@H](C)[C@H](NC(=O)[C@H](C)NC(=O)[C@H](CCCCN)NC(=O)[C@H](CC(C)C)NC(=O)[C@H](C)NC(=O)[C@@H](NC(=O)[C@H](Cc1c[nH]cn1)NC(=O)[C@H](CC(C)C)NC(=O)[C@@H](NC(=O)[C@@H](NC(=O)[C@H](CCCCN)NC(=O)[C@H](C)NC(=O)[C@H](C)NC(=O)[C@H](CO)NC(=O)[C@H](CCCCN)NC(=O)[C@H](Cc1ccccc1)NC(=O)[C@@H](NC(=O)[C@H](CCCCN)NC(=O)[C@H](CC(C)C)NC(=O)[C@H](Cc1ccccc1)NC(=O)[C@H](CO)NC(=O)[C@H](CCCCN)NC(=O)[C@H](Cc1c[nH]c2ccccc12)NC(=O)[C@H](CCCCN)NC(C)=O)[C@@H](C)O)[C@@H](C)O)C(C)C)[C@@H](C)O)C(=O)N[C@@H](CO)C(=O)N[C@@H](CO)C(N)=O	Enterobacter cloacae			40 strains		MIC90	16 µg/mL (≈ 5.45 µM)
CNCC(=O)N[C@@H](CO)C(=O)N[C@H]1[C@H](O)[C@@H](O)[C@H](n2ccc(N)nc2=O)O[C@@H]1C(N)=O	Tobacco mosaic virus	in vivo		500 µg/mL		inactivation activity	78% and 86%
CN(C)c1ncnc(-c2ccc3nc(Nc4cc(CN5CCN(C(=O)CC(F)(F)F)CC5)ccn4)[nH]c3c2)c1Cl	murine hepatitis virus	viral replication, nanoluciferase reporter	DBT	1 µM, 10 h	baseline: DMSO vehicle	inhibition	8%
CS(=O)(=O)CCCn1c(Cn2c(=O)n(CC(F)(F)F)c3ccncc32)cc2cc(Cl)ccc21	respiratory syncytial virus	RT-qPCR	hospitalized infants 1-24 months, nasal swab	oral, 9, 6 or 5 mg/kg daily, day 4, high dose by age cohort	baseline: placebo	LS mean difference vs placebo	-2.14 log10 copies/mL
C#Cc1ccc(C=NNC(=O)c2ccc(Br)cc2Br)c(O)c1	Aspergillus fumigatus		293	unit not given, with: voriconazole	lower = more synergy	FICI	2
C[C@@H](O)[C@H]1C(=O)N2C(C(=O)O)=C(SCCN=CN)C[C@H]12	Klebsiella pneumoniae	broth microdilution	parental, KPC-33			MIC	0.5 µg/mL
COc1cc2c(Nc3cccc(NC(=O)c4ccccc4)c3)ncnc2cc1OCCCN1CCOCC1	Aspergillus fumigatus			20 µM	baseline: untreated	metabolic activity	≥ 80%
Cc1c[nH]c(-c2cnc(NCCNc3ccc(C#N)cn3)nc2-c2ccc(Cl)cc2Cl)n1	murine hepatitis virus	viral replication, nanoluciferase reporter	DBT	1 µM, 10 h	baseline: DMSO vehicle	inhibition	12%
CC(C)[C@H](NC(=O)[C@H](CCCNC(=N)N)NC(=O)[C@H](Cc1c[nH]c2ccccc12)NC(=O)[C@H](CCCNC(=N)N)NC(=O)[C@H](Cc1c[nH]c2ccccc12)NC(=O)[C@H](Cc1c[nH]c2ccccc12)NC(=O)[C@H](Cc1c[nH]c2ccccc12)NC(=O)[C@H](CCCNC(=N)N)NC(=O)[C@H](Cc1c[nH]c2ccccc12)NC(=O)[C@H](CCCNC(=N)N)NC(=O)CN)C(N)=O	Candida albicans		CGMCC 2.209	no added salts		MIC	8 µM
O=C(NCc1cccc(O)c1)Nc1nc(-c2ccncc2)cs1	murine hepatitis virus	viral replication, nanoluciferase reporter	DBT	1 µM	baseline: DMSO vehicle	inhibition	13%
CO[C@H]1/C=C/O[C@@]2(C)Oc3c(C)c(O)c4c(O)c(c(/C=N/N5CCN(C)CC5)c(O)c4c3C2=O)NC(=O)/C(C)=C\C=C\[C@H](C)[C@H](O)[C@@H](C)[C@@H](O)[C@@H](C)[C@H](OC(C)=O)[C@@H]1C	Mycobacterium avium subsp. hominissuis	REMA	ATCC 25291			MIC90	0.05 µg/mL (≈ 0.0608 µM)
CN(c1ccnc(CNc2nc(Nc3ccc4c(c3)CC(=O)N4)ncc2C(F)(F)F)n1)S(C)(=O)=O	murine hepatitis virus	viral replication, nanoluciferase reporter	DBT	1 µM	baseline: DMSO vehicle	inhibition	23%
C[C@H](NC(=O)[C@H](CCCNC(=N)N)NC(=O)[C@H](Cc1c[nH]c2ccccc12)NC(=O)[C@H](CCCNC(=N)N)NC(=O)[C@H](Cc1c[nH]c2ccccc12)NC(=O)[C@H](Cc1c[nH]c2ccccc12)NC(=O)[C@H](Cc1c[nH]c2ccccc12)NC(=O)[C@H](CCCNC(=N)N)NC(=O)[C@H](Cc1c[nH]c2ccccc12)NC(=O)[C@H](CCCNC(=N)N)NC(=O)CN)C(N)=O	Candida albicans	broth microdilution	SP3876, RPMI 1640-MOPS	48 h, 30 °C		MIC	8 µM
